Earlier results as cited in several papers.
Lines come from different studies, so protocols differ.
Chain of UniProt Q16620 (whole entry, looked up): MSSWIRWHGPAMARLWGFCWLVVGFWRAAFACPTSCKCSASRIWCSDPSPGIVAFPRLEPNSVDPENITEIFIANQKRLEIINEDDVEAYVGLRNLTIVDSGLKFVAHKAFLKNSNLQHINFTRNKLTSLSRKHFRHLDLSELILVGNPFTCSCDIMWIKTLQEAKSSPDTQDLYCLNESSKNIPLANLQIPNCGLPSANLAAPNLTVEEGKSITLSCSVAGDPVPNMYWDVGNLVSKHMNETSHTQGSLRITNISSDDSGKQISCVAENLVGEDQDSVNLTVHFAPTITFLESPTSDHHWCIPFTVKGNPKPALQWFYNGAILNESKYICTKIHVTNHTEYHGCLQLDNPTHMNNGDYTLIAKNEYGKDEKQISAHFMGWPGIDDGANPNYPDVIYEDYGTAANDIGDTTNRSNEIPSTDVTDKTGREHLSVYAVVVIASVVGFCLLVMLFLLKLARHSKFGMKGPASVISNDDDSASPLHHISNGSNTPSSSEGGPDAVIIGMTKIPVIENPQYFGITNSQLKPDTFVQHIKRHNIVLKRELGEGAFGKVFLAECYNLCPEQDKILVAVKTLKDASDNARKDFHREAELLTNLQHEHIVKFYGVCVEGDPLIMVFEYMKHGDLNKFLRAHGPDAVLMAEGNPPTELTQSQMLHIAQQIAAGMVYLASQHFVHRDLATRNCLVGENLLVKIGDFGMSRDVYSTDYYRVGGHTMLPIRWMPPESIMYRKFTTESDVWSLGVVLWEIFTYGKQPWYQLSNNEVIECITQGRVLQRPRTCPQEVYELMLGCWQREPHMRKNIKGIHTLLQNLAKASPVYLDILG

Oc1ccc(-c2nc(-c3ccc(OC4CCCC4)cc3)no2)cc1 has an MIC of 1 to 2 µg/mL (Staphylococcus aureus; NRS119 linezolid-resistant).
For CCOC(=O)C(c1c(O)ccc2ccccc12)N1CCOCC1 (centres unmarked), “relative fluorescence index” read 1.1 (Staphylococcus aureus; efflux pump inhibition; ATCC 25923; 50 µM; baseline: untreated cells).
CO/N=C(\C(=O)N[C@@H]1C(=O)N2C(C(=O)O)=C(CSC(=O)c3ccco3)CS[C@H]12)c1csc(N)n1 gave an MIC of 2 µg/mL (Staphylococcus aureus).
COc1ccc(CCc2cc(OC)c(OC)c(OC)c2)cc1O has an MIC of 512 µg/mL (Staphylococcus aureus).
For O=C(O)c1[nH]c2ccccc2c1C1NCCc2ccccc21 (centres unmarked), “relative fluorescence index” read -0.14 (Staphylococcus aureus; efflux pump inhibition; ATCC 25923; 50 µM; baseline: untreated cells).
With C[C@@H](O)[C@H]1C(=O)N2C(C(=O)O)=C(S[C@@H]3CN[C@H](C(=O)N(C)C)C3)[C@H](C)[C@H]12 the MIC90 was ≤ 0.12 µg/mL (Staphylococcus aureus; MSSA).
With C/C(=C\C(=O)OCCCCCCCCC(=O)O)C[C@@H]1OC[C@H](C/C=C/[C@@H](C)[C@H](C)O)[C@@H](O)[C@H]1O the MIC was 0.25 µM (Staphylococcus aureus; Newman).
C[C@H]1c2cccc(O)c2C(=O)C2=C(O)[C@]3(O)C(=O)C(C(N)=O)=C(O)[C@@H](N(C)C)[C@@H]3[C@@H](O)[C@@H]21 gave an MIC of 32 µg/mL (Staphylococcus aureus).
With O=C(O)[C@H]1O[C@@H](Oc2c(O)cc(O)c3c(=O)c(O)c(-c4ccc(O)c(O)c4)oc23)[C@H](O)[C@@H](O)[C@@H]1O the MIC was 512 µg/mL (Staphylococcus aureus).
Nc1cc(C(F)(F)F)c(-c2nc(N3CCOCC3)nc(N3CCOCC3)n2)cn1 has a remaining activity of 84% (NTRK2 (Homo sapiens, UniProt Q16620); enzyme activity; 10 µM; baseline: untreated).
The MIC of CC[C@H](C)[C@H](N)C(=O)N[C@@H](CC(C)C)C(=O)N[C@@H](CCCNC(=N)N)C(=O)N[C@@H](Cc1c[nH]c2ccccc12)C(=O)N1CCC[C@H]1C(=O)N[C@@H](Cc1c[nH]c2ccccc12)C(=O)N[C@@H](Cc1c[nH]c2ccccc12)C(=O)N1CCC[C@H]1C(=O)N[C@@H](Cc1c[nH]c2ccccc12)C(=O)N[C@@H](CCCNC(=N)N)C(=O)N[C@@H](CCCNC(=N)N)C(=O)N[C@@H](CCCCN)C(N)=O is reported as 64 µg/mL (Staphylococcus aureus; ATCC 33591).
CCOC(=O)C(c1ccc2ccccc2c1O)N1CCOCC1 (centres unmarked): “relative fluorescence index” -0.58 (Staphylococcus aureus; efflux pump inhibition; ATCC 25923; 50 µM; baseline: untreated cells).
For Oc1ccc(-c2nc(-c3ccc(OC4CCCC4)cc3)no2)cc1, the MIC was 2 to 4 µg/mL (Staphylococcus aureus; NRS100).
With NC[C@H]1O[C@H](O[C@H]2[C@H](O)[C@@H](O[C@H]3O[C@H](CO)[C@@H](O)[C@H](N)[C@H]3O)[C@H](N)C[C@@H]2N)[C@H](O)[C@@H](O)[C@@H]1O the MIC was 8 µg/mL (Staphylococcus aureus).

For quick reference, copied from above:
CCOC(=O)C(c1ccc2ccccc2c1O)N1CCOCC1 (centres unmarked): “relative fluorescence index” -0.58 (Staphylococcus aureus; efflux pump inhibition; ATCC 25923; 50 µM; baseline: untreated cells).
